Measured values pooled from the literature.
Each numbered part is a random draw from the data of one study; scales do not carry over between parts.

Series 1 — method: RNA Bind-n-Seq; molecule type: RNA; medium: in vitro; tested at: 200 nM; notes: whole 134-nt RNA, ends assumed; together with: 150 mM KCl; baseline: input library; direction: higher = stronger binding
Target: Fragile X messenger ribonucleoprotein 1, C-terminal low-complexity region (Fmr1, Mus musculus, UniProt P35922)
All sequences stand within: GGGAGUUCUACAGUCCGACGAUC … UGGAAUUCUCGGGUGUCAAGG
Strand	log2 enrichment
UUAGAAGAAGUGGAAAGGAAAAAACGCCAAAGGGAGUUGGAAAUUGAAGAACGAGAACGGCGUAGAGAGGAAGAGAGAAGACUUGGCGAU	0.00479
GCAGGAAGUAAAAACAAAUGGAAAUGCUUCGGAUAGUGGCAGGGGUGGGGGUUGCUAAGGAAAGGGUGGGAUGGGAGUGGGUAAAGAAAU	0.534
CACAGACAACACGCACCCACACAGACACAGAGGGAAGGGGUUGGGAUGGGGACAGAAAGCACAGCAGGGCGGGGUAGGACCCCAGCCCCU	1.24
CUCAAGUCCUGUGCUACACAUCGUAUGUACCGAAUCGGGAGGGAGGGGAGGGGAAAGUAUUAUGUUACGCCGUUCGGAUCUGCACUUCCA	1.19
UCAAGUCCUGUGCUACACAUCGUAUGUACCGAAUCGGCCCGGGGCCCGGCCCGGAAAGUAUUAUGUUACGCCGUUCGGAUCUGCACUUCC	-0.285
CUGUGCUACACAUCGUAUGUACCGAAUCGGGGAAAAAAAGGGAAAAAAAGGGGAAAAAAAGGAAAGUAUUAUGUUACGCCGUUCGGAUCU	-0.33
UGUCCCUGGUGGCAUGCGGGGAGGAAGAGGUGGCCUCAUGGAUCGUGGUGGUCCCGGUGGAAUGUUCAGAGGUGGCCGUGGUGGAGACAG	-0.122

Series 2 — method: RNA Bind-n-Seq; molecule type: RNA; medium: in vitro; tested at: 365 nM; baseline: no-protein control; direction: higher = stronger binding
Target: RNA binding protein fox-1 homolog 2, RRM domain, GST-SBP tag (RBFOX2, Homo sapiens, UniProt O43251-10, residues 100-194)
Notes: natural RNA segment, single round, ends assumed
All sequences stand within: GGGAGUUCUACAGUCCGACGAUC … UGGAAUUCUCGGGUGCCAA
Strand	RBNS enrichment (R)
GCAUUGCCAUUGGAGGCUCAAUUGACUGAAAUUACUUUAACAUUUUGGAAAUUGUUAUGUAUCACUAAAAGCAUGAAUUGGAACUGCACUGGAAGUCAAAUUCACUUAAA	5.73
GUUAUUAUUUGUUUCUGUUGUUUACUCUUUAAUCGUAAGUACUUUUAAACCACGACCCAGGUCCUUGGUUCACAUGGAAUAAUAAAGAUGUGUUUUUAGAUGGCACAUUG	0.574
UACCUGUGAGGCUGACACCUGUUGCAGACUAUGGAGUGGUGAGAUUUGGGAAAGUUGGGCUAUAUGUUUGCAGGGACUUAAAAAGGUAGGUUCAGAACAGUAUUCUCAGU	0.993
GUAGCAAAUUGGUUCUGAAUUAUGCAACUGUUUGCUAUUUAGUAAACUAGCAAAUGAUGCAUGUAUUUUGUUUUUCAUGUACUGGGCAAUAUGAGUAAAAUCUGUCCCUU	0.513
CAGAAAGCAAGGGGUGCCUAAAUCUAGACUUGGGGUCCACACCGGGCAGCGGGGUUGCAACCCAGCACCUGGUAGGCUCCAUUUCUUCCCAAGCCCGAGCAGAGGGUCAU	0.393
GAGAAAUGGCUUCCGGAUGAGAUGGACCUGACUGGGGAAACACCUUUGAGCUUGUAACCUAGCAGCUGGGGCCAGUGAGAGGUGACUCAGACACUCCUGCCUCAGUUUCU	0.998
CUGUGGAUCUCUCUCCUUGGCCUUCAGUCCCUGCAGUAUUUUACUGUCAGAUAGCAUGUGGUGCCUCUACUUGUAAAUGUCAAAUCUUUGAAAUAAACUAUUACAGAUAU	3.32
AAAGUGCCCAAGCUGCUGACGCAAACAACAACAAAUGCUGCUUAUUUGCAUGCCGACUUACAUAUAUUUGCAUGUUCGUUGACUAUCAAAGAGUGCAGAGCUCUCCCCAG	0.463

Series 3 — method: universal PBM; molecule type: double-stranded DNA, one strand shown; medium: in vitro; tested at: not given; direction: higher = stronger binding
Target: Sal-like protein 4, full length isoform B (SALL4, Homo sapiens, UniProt Q9UJQ4-2, residues 1-616)
Notes: 8-mer, flanks averaged, mean of replicates
Strand	E-score
GACGTGCA	0.0733
CGTCACGA	-0.0223
CGTCGGAA	0.00649
ACATGAGC	-0.0103
CAGACTCC	-0.274
CTCTTCGC	-0.146
GGTGCACC	-0.3

Further values, each from its own experiment
Molecule	target	assay	system	setting	scale	endpoint	result
PhoQ, residues 284 288 289 292 302 303 NLALSC	PhoP, residues 12 14 15 18 19 NQFFI (Escherichia coli, UniProt P23836)	Sort-seq, refers to: YFP reporter	E. coli	PhoQ-PhoP variant library, together with: 10 µM Mg2+	baseline: high Mg2+ state, higher = stronger signaling	fold induction	1.9

Repeated from above (series 3):
Strand	E-score
GACGTGCA	0.0733
CGTCGGAA	0.00649
CGTCACGA	-0.0223
